{"data": "Experimental data of several laboratories", "note": "Each numbered part is a random draw from the data of one study; scales do not carry over between parts."}
{"data": "Sample 1", "target": "TAR DNA-binding protein 43, full length, His tag (TARDBP, Homo sapiens, UniProt Q13148, residues 1-414)", "technique": "RNA Bind-n-Seq", "form": "RNA", "sample": "in vitro", "concentration": "20 nM", "setting": "6-mer, flanks averaged, single round", "added": "150 mM LiCl", "baseline": "input library", "reading": "higher = stronger binding"}
{"Sequence": "CAUAUU", "6-mer enrichment (R)": 0.979}
{"Sequence": "AGCGUU", "6-mer enrichment (R)": 0.935}
{"Sequence": "AGAUGU", "6-mer enrichment (R)": 1.03}
{"Sequence": "UAAGUU", "6-mer enrichment (R)": 0.975}
{"Sequence": "CGGACG", "6-mer enrichment (R)": 1.02}
{"Sequence": "AGCCCC", "6-mer enrichment (R)": 1.13}
{"Sequence": "UGGCUC", "6-mer enrichment (R)": 0.926}
{"Sequence": "CUACUC", "6-mer enrichment (R)": 0.852}
{"data": "Sample 2", "target": "Prothrombin, mature alpha-thrombin (F2, Homo sapiens, UniProt P00734)", "technique": "aptamer microarray, sandwich", "form": "DNA with 2'F-ANA", "sample": "in vitro", "concentration": "200 nM", "setting": "whole 15-mer aptamer, many near background", "added": "Cy3 exosite-II aptamer, 400 nM", "reading": "higher = stronger binding", "sequence": "GGTTGGTGTGGTTGG"}
{"Modification": "2'F-ANA at 1 2 3 4 5 6 8 9 10 14 15", "mean fluorescence intensity [a.u.]": 54.2}
{"Modification": "2'F-ANA at 3 4 7 11 12 14", "mean fluorescence intensity [a.u.]": 473}
{"Modification": "2'F-ANA at 2 4 6 8 12 13 15", "mean fluorescence intensity [a.u.]": 362}
{"Modification": "2'F-ANA at 1 2 3 5 8 11", "mean fluorescence intensity [a.u.]": 56}
{"Modification": "2'F-ANA at 2 3 5 8 10 11 15", "mean fluorescence intensity [a.u.]": 54.7}
{"Modification": "2'F-ANA at 1 9 12", "mean fluorescence intensity [a.u.]": 417}
{"Modification": "2'F-ANA at 2 6 7 10 12", "mean fluorescence intensity [a.u.]": 162}
{"Modification": "2'F-ANA at 1 2 6 7 9 14", "mean fluorescence intensity [a.u.]": 65.4}
{"data": "Sample 3", "target": "Krueppel-like factor 3, full length (KLF3, Homo sapiens, UniProt P57682, residues 1-345)", "technique": "protein-binding microarray", "form": "hairpin DNA", "sample": "in vitro", "concentration": "not given", "setting": "whole hairpin DNA, median over replicate spots", "baseline": "not given", "reading": "higher = stronger binding", "chain of UniProt P57682 (whole entry, looked up)": "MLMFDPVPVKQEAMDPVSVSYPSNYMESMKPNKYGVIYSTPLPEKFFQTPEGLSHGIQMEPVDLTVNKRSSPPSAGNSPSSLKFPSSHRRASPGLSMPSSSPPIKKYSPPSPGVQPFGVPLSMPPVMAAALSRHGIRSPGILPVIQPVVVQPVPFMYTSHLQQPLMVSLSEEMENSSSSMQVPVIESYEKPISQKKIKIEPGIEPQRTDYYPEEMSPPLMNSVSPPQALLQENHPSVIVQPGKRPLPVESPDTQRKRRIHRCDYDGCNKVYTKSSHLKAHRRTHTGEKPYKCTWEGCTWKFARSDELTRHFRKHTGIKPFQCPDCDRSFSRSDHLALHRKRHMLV"}
{"Sequence": "GAGGCCGACCACGCCCAGCCTCCTGGCTGGGCGTGGTCGGCCTCACACTC (5mC at 12 32)", "median fluorescence [a.u.]": 8620}
{"Sequence": "GAGGCCCACCACGCCCAGCCTCCTGGCTGGGCGTGGTGGGCCTCACACTC (5mC at 7)", "median fluorescence [a.u.]": 9270}
{"Sequence": "GAGGCCCGCCGCGCCCAGCCTCCTGGCTGGGCGCGGCGGGCCTCACACTC (5mC at 37)", "median fluorescence [a.u.]": 8670}
{"Sequence": "GAGGCCGACCGCGCCCAGCCTCCTGGCTGGGCGCGGTCGGCCTCACACTC", "median fluorescence [a.u.]": 8680}
{"Sequence": "GAGGCCTACCACGCCCAGCCTCCTGGCTGGGCGTGGTAGGCCTCACACTC", "median fluorescence [a.u.]": 9310}
{"Sequence": "GAGGCCAACCACGCCCAGCCTCCTGGCTGGGCGTGGTTGGCCTCACACTC", "median fluorescence [a.u.]": 9280}
{"Sequence": "GAGGCCGACCGCGCCCAGCCTCCTGGCTGGGCGCGGTCGGCCTCACACTC (5mC at 14)", "median fluorescence [a.u.]": 8690}
{"Sequence": "GAGGCCGCGCACGCCCAGCCTCCTGGCTGGGCGTGCGCGGCCTCACACTC (5mC at 36)", "median fluorescence [a.u.]": 10100}
{"data": "Further values, each from its own experiment"}
{"Structure (SMILES)": "N[C@@H](C(=O)N[C@@H]1C(=O)N2C(C(=O)O)=C(CSc3c[nH]nn3)CS[C@H]12)c1ccc(O)cc1", "organism": "Sarcocystis neurona", "assay": "parasite growth", "conditions": "10 µM, 96 h, first screen", "endpoint": "inhibition", "result": "3.2%"}
{"note": "Excerpt of the above (sample 2):"}
{"Modification": "2'F-ANA at 1 2 3 5 8 11", "mean fluorescence intensity [a.u.]": 56}
